Results pooled from the literature.
Each line is one published result; not all experiments were run side by side. ± marks the error that the study gave.

| SMILES | cell line | test | conditions | scale | quantity | result |
| --- | --- | --- | --- | --- | --- | --- |
| [Cl][Pd-]1([Cl])[S]C(Nc2ccccc2)=N[N+]1=Cc1cccs1 | HEL human lung fibroblasts | altered cell morphology, microscopy | confluent cultures | – | cytotoxic concentration | 100 µM |
| FC(F)(F)c1ccnc(-c2cc(C(F)(F)F)ccn2)c1.FC(F)(F)c1ccnc(-c2cc(C(F)(F)F)ccn2)c1.[Cl-].[Cl-].[Ru+2].c1csc(-c2ccc(-c3ccc(-c4nc5c6cccnc6c6ncccc6c5[nH]4)s3)s2)c1 | SK-MEL-28 | cell viability | normoxia, with: red light 633 nm, 100 J/cm2 | reference: dark EC50 over light EC50 | phototherapeutic index | 28 |
| Cc1cc2nc(-c3cc4ccccc4nc3Cl)[nH]c2cc1C | HepG2 | flow cytometry | 6 µM, 48 h | – | cells in G2 phase | 34.8% |
| Cc1nn(-c2ccc(S(=O)(=O)N[C@H](CO)CC(C)C)cc2)c2nn3nnnc3nc12 | HT-29 | PI/Hoechst staining | 2 µM, 24 h | – | necrotic cells | 26.5 ± 0.7% |
| CCC(=C(c1ccc(Cl)cc1)c1ccc(OCCCN(C)C)cc1)c1ccccc1 | NCI-60 tumour cell lines | – | 10 µM, mean over cell lines | – | growth inhibition | 5.02% |
| COc1cc(CNC(=O)C[C@H](C)CCC=C(C)C)ccc1OCc1cn(-c2ccc(F)cc2)nn1 | UACC-257 melanoma cells | SRB | 10 µM, 48 h | – | growth percent | 69.9% |
| Nc1c(S(=O)(=O)O)cc(Nc2cccc(S(N)(=O)=O)c2)c2c1C(=O)c1ccccc1C2=O | primary mouse articular chondrocytes | real-time PCR, item: Sox9 | 25 µM, micromass culture | – | mRNA level | increased |
| COc1cc(CNC(=O)C[C@H](C)CCC=C(C)C)ccc1OCc1cn(-c2ccc(C#N)cc2)nn1 | MDA-MB-468 breast cancer cells | SRB | 10 µM, 48 h | – | growth percent | 30.2% |
| O=C(/C=C/c1cccc(S(=O)(=O)Nc2cccc(F)c2)c1)NO | MOPC-315 | cell growth | 24 h | reference: belinostat | relative potency | 0.869 |
| COc1cc(CNC(=O)C[C@H](C)CCC=C(C)C)ccc1OCc1cn(-c2cccc(C(F)(F)F)c2)nn1 | OVCAR-4 ovarian cancer cells | SRB | 10 µM, 48 h | – | growth percent | 45.1% |
| COc1cc2c(OC3OCC(OC)C(OC)C3OC(=O)c3ccc(Br)cc3)c3c(c(-c4ccc5c(c4)OCO5)c2cc1OC)C(=O)OC3 (stereo not drawn) | CAL-27 and FaDu | western blot and RT-qPCR, item: E-cadherin mRNA and protein | 0.1, 1, 2 µM, 36 h, with: bafilomycin A1 0.1 µM | – | E-cadherin expression | no effect |
| CC(C)C[C@H](NC(=O)[C@H](CO)NC(=O)[C@H](C)NC(=O)[C@@H]1CCCN1C(=O)[C@H](Cc1c[nH]c2ccccc12)NC(=O)[C@H](CS)NC(=O)[C@H](CCC(=O)O)NC(=O)[C@H](CC(=O)O)NC(=O)[C@H](CC(N)=O)NC(=O)[C@H](CC(C)C)NC(=O)[C@@H](NC(=O)CNC(=O)[C@@H](NC(=O)[C@H](CO)NC(=O)[C@H](CC(C)C)NC(=O)[C@@H](NC(=O)[C@H](C)NC(=O)[C@H](C)NC(=O)CNC(=O)[C@H](CCC(=O)O)NC(=O)[C@H](CO)NC(=O)[C@@H]1CCCN1C(=O)[C@H](CC(C)C)NC(=O)[C@H](Cc1ccccc1)NC(=O)[C@H](CCC(N)=O)NC(=O)[C@H](CCC(=O)O)NC(=O)[C@H](CCCNC(=N)N)NC(=O)[C@H](CO)NC(=O)[C@@H](NC(=O)[C@H](C)NC(=O)[C@H](C)N)[C@@H](C)O)C(C)C)C(C)C)[C@@H](C)O)C(=O)O | MELOE-1(36-44)-specific HLA-A*0201 CD8 T cell clone | cross-presentation, cross-presentation by mature DC | – | reference: full-length MELOE-1 over compound EC50 | potency ratio | ~100 fold |
| COc1cc(CNC(=O)C[C@H](C)CCC=C(C)C)ccc1OCc1cn(-c2ccc(Cl)c(Cl)c2)nn1 | Malme-3M melanoma cells | SRB | 10 µM, 48 h | – | growth percent | 77.4% |
| CCC(=C(c1ccc(Cl)cc1)c1ccc(OCCN2CCOCC2)cc1)c1ccc(Cl)cc1 | NCI-60 tumour cell lines | – | 10 µM, mean over cell lines | – | growth inhibition | 11% |
| COc1cc(CNC(=O)C[C@H](C)CCC=C(C)C)ccc1OCc1cn(-c2ccccc2Cl)nn1 | UACC-257 melanoma cells | SRB | 10 µM, 48 h | – | growth percent | 60.3% |
| CC(=O)N[C@H](C(=O)N[C@H](C(=O)N[C@@H](CCCNC(=N)N)C(=O)N1Cc2ccccc2C[C@H]1C(=O)N[C@@H](Cc1ccccc1)C(N)=O)C1CCCCC1)C(C)C | MBP-specific BC-3 T cells | Bio-Plex multiplex, item: IL-7 | 200 µg/mL, 24 h, with: MBP87-99 antigen | – | cytokine level | < 3.7 pg/mL |
| COc1cc(CNC(=O)C[C@H](C)CCC=C(C)C)ccc1OCc1cn(-c2cccc([N+](=O)[O-])c2)nn1 | SF-295 CNS cancer cells | SRB | 10 µM, 48 h | – | growth percent | 96.5% |
| CC(C)=C1CC[C@]2(COC(=O)c3ccccc3)[C@@H](OC(=O)c3ccccc3)/C=C(\C)CC[C@@H]3O[C@@]3(C)C[C@@H](OC(=O)c3cccnc3)[C@@H]12 | HepG2, palmitic acid-induced insulin resistance | – | 15 µM, 24 h | – | glucose consumption | 8.56 ± 0.58 mM |
| COc1ccc(-c2cc(C(F)(F)F)nc(S(=O)(=O)CCCC(=O)Nc3ccc(F)cc3F)n2)cc1OC | rat INS-1 832/13 cells | – | 20 µM, no GLP-1, with: 15 mM glucose | reference: DMSO | insulin secretion | increased |
| C(=C/c1ccccc1)/c1ccccc1 | HL-60 | apoptosis, item: caspase-3 activity | 24 h, lowest dose with significant induction | reference: vehicle | lowest effective concentration | 10 µM |
| O=[N+]([O-])c1ccc(NC2=N[N+](=Cc3cccs3)[Pd-]([Cl])([Cl])[S]2)cc1 | HEL human lung fibroblasts | altered cell morphology, microscopy | confluent cultures | – | cytotoxic concentration | > 100 µM |
| Cc1cc(-c2cn([C@@H]3O[C@H](CO)[C@@H](O)[C@H]3O)c3ncnc(N)c23)ccc1Cl | HEK | cytotoxicity | – | – | EC50 | > 200 µM |
| COc1cc(CNC(=O)C[C@H](C)CCC=C(C)C)ccc1OCc1cn(-c2ccc(Cl)cc2Cl)nn1 | SW-620 | SRB | 10 µM, 48 h | – | growth percent | 89.3% |
| CC(=O)O[C@H]1CC[C@]2(C)[C@H]3C(=O)C=C4[C@@H]5C[C@@](C)(C(=O)OCc6ccccc6)CC[C@]5(C)CC[C@@]4(C)[C@]3(C)CC[C@H]2C1(C)C | HepG2 | autophagy, flow cytometry | 4 µM, 24 h, unit not given | reference: untreated | MDC fluorescence intensity | 1460 |
| COc1cc(CNC(=O)C[C@H](C)CCC=C(C)C)ccc1OCc1cn(-c2ccccc2F)nn1 | SW-620 | SRB | 10 µM, 48 h | – | growth percent | 92.7% |
| Cc1c2ccnc(C(=O)N[C@H](C)CN(C)C)c2cc2c3cc(OCCCN4CCN(C)CC4)ccc3n(C)c12 | healthy donor iPSCs | RNA-seq | 100 nM | reference: vehicle | C9orf72 intron splicing or read counts | no effect |
| CC(=O)c1c(C)c2cnc(Nc3ccc(N4CCNCC4)cn3)nc2n(C2CCCC2)c1=O | recombinant CHO antibody-producing panel | – | – | – | maximum specific productivity | ≤ 110 pg/cell/day |
| O=Cc1c(O)ccc2ccccc12 | HUVEC | RNA sequencing, item: TRIB3 | 75 µM, 24 h | reference: DMSO | log2 fold change | 3.55 |
| CC(C)=CCc1c(O)cc(CO)cc1O | HepG2, palmitic acid-induced insulin resistance | – | 15 µM, 24 h | – | glucose consumption | 4.51 ± 0.76 mM |
| CC(Cc1ccc(Cl)cc1)=C(c1ccc(Cl)cc1)c1ccc(OCCN(C)C)cc1 | NCI-60 tumour cell lines | – | 10 µM, mean over cell lines | – | growth inhibition | 51.9% |

Excerpt of the above:
| SMILES | cell line | test | conditions | scale | quantity | result |
| --- | --- | --- | --- | --- | --- | --- |
| CCC(=C(c1ccc(Cl)cc1)c1ccc(OCCN2CCOCC2)cc1)c1ccc(Cl)cc1 | NCI-60 tumour cell lines | – | 10 µM, mean over cell lines | – | growth inhibition | 11% |
| CC(C)=C1CC[C@]2(COC(=O)c3ccccc3)[C@@H](OC(=O)c3ccccc3)/C=C(\C)CC[C@@H]3O[C@@]3(C)C[C@@H](OC(=O)c3cccnc3)[C@@H]12 | HepG2, palmitic acid-induced insulin resistance | – | 15 µM, 24 h | – | glucose consumption | 8.56 ± 0.58 mM |
